Measurements collected from several papers.
Protocols differ between the studies behind these lines. Values joined by “and” are separate records of one study, mostly repeats; a detail may differ. ± marks the error that the study gave. In brackets after ≈: the same amount, converted by molar mass.

Structure (SMILES)	test	test system	conditions	scale	measurement	result
CC(C(=O)NCC(=O)NCC(CNC(=O)CNC(=O)C(C)N1CCN(CC(=O)[O-])CCN(CC(=O)[O-])CCN(CC(=O)[O-])CC1)(CNC(=O)CNC(=O)C(C)N1CCN(CC(=O)[O-])CCN(CC(=O)[O-])CCN(CC(=O)[O-])CC1)CNC(=O)CNC(=O)C(C)N1CCN(CC(=O)[O-])CCN(CC(=O)[O-])CCN(CC(=O)[O-])CC1)N1CCN(CC(=O)[O-])CCN(CC(=O)[O-])CCN(CC(=O)[O-])CC1.[Gd+3].[Gd+3].[Gd+3].[Gd+3] (stereo not shown)	–	cynomolgus monkey, kidney cortex	dose not given, day 5	–	lanthanide concentration	41 ± 32 nmol/g
O=C(N[C@H](Cc1c[nH]c2ccccc12)C(=O)Nc1ccncc1)c1ccc(-c2ccc(F)c(C(F)(F)F)c2)cc1F	–	Swiss Webster mouse, female, intestine	oral, 50 mg/kg, 2 h, 20% HPβCD vehicle	–	concentration	108 µM
CCC(C)n1ncn(-c2ccc(N3CCN(c4ccc(OCC5COC(Cn6cncn6)(c6ccc(Cl)cc6Cl)O5)cc4)CC3)cc2)c1=O (stereo not shown)	–	fresh human whole blood	1 µM, pH 7.4	–	blood-to-plasma ratio	0.64
O=C1CCc2ccc(OCCCCN3CCN(c4cccc(Cl)c4Cl)CC3)cc2N1	–	CYP2D6 poor metabolizers	concentration not given, genotype-based phenotype, long-acting oral or depot	–	extrapyramidal symptom frequency	11%
COc1cc([C@@H]2Oc3cc([C@H]4Oc5cc(O)cc(O)c5C(=O)[C@@H]4O)ccc3O[C@H]2CO)ccc1O	–	FVB wild-type mice, plasma	oral gavage, 500 mg/kg silymarin, geometric mean	–	AUC(0-4h)	0.45 µM·h
c1csc(CNc2cc[nH]n2)c1	DNA damage, alkaline comet	Hsd:ICR(CD-1) mice, female, liver	oral gavage, 500 mg/kg/day, 3 days	–	tail DNA (mean)	1.6%
CNCc1ccc(-c2[nH]c3cc(F)cc4c3c2CCNC4=O)cc1	–	human patients	oral, 840 mg twice daily, all grades	–	nausea incidence	100%
CC(=O)O[C@H]1C(=O)[C@@]2(C)[C@H]([C@H](OC(=O)c3ccccc3)[C@]3(O)C[C@H](OC(=O)[C@H](O)[C@@H](NC(=O)c4ccccc4)c4ccccc4)C(C)=C1C3(C)C)[C@]1(OC(C)=O)CO[C@@H]1C[C@@H]2O	item: Alopecia	patients with advanced solid tumours	intravenous, dose not given, grade 1 and 2, possibly related to drug	–	adverse event incidence	28%
COc1cc(C)c(/C=C/C(C)=C/C=C/C(C)=C/C(=O)O)c(C)c1C	shake-flask	Cremophor ELP	37 °C, water up to 0.5% w/w	–	thermodynamic solubility	1.58 ± 0.08 mg/g
COc1cccc(OC)c1-c1cc(C(=O)NC2(C(=O)O)C3CC4CC(C3)CC2C4)nn1-c1ccc(C(=O)N(C)CCCN(C)CCCN(C)C(=O)CN2CCN(CC(=O)[O-])CCN(CC(=O)[O-])CCN(CC(=O)[O-])CC2)cc1C(C)C.[177Lu+3] (stereo not shown)	–	mouse, HT-29 xenograft	168 h post injection, biodistribution	relative to: tumour over muscle uptake	tumour-to-muscle ratio	6.06
CC(C)c1nc(N(C)S(C)(=O)=O)nc(-c2ccc(F)cc2)c1/C=C/[C@@H](O)C[C@@H](O)CC(=O)O	item: Headache	human	oral, 10 mg	–	participants with TEAE	3.4%
O=C(O)c1cc(O)c(O)c(O)c1	LC-MS/MS	male Ross broilers, serum	intravenous, 0.49 mg/kg BW	–	Vd	2.19 ± 1.98 L/kg
CC(C)[C@@H](CN1CC[C@@](C)(c2cccc(O)c2)[C@@H](C)C1)NC(=O)[C@H]1Cc2ccc(O)cc2CN1	–	rat, brain	intraperitoneal, 10 mg/kg	–	AUClast	24200 ng·h/g
O=C(Nc1cnccc1Cl)N1CCN(Cc2ccc3c(c2)OC(F)(F)O3)CC1	item: Haematoma	human healthy young men	25 mg, multiple dose	–	adverse event incidence	0%
COc1ccc2[nH]c([S+]([O-])Cc3ncc(C)c(OC)c3C)nc2c1 (stereo not shown)	–	healthy Chinese volunteers, plasma	oral, 20 mg, enteric-coated capsules, CYP2C19 rapid metabolizers	–	AUC(0-inf)	249 ± 80.9 ng·h/mL
N#CCNC(=O)c1ccc(-c2ccnc(Nc3ccc(N4CCOCC4=O)cc3)n2)cc1	–	healthy volunteers, plasma	dose not given, added: rifampin multiple-dose	relative to: with single-dose rifampin	AUCinf decrease	15%
CNC(=O)c1ccc(-c2cnc3ncc(Cc4ccc5ncccc5c4)n3n2)cc1F	–	cancer patients	oral, dose not given, all grades dose escalation	–	back pain incidence	3%
CCCC1CCC(c2ccc(OCC)c(F)c2F)CC1 (stereo not shown)	–	rat, placenta	1000 ng/mL in perfusate, middle dose, mixture of 21 LCMs	–	median placental accumulation	12 ng/g
COc1ncc(-c2nc3c(n2C(C)C)[C@H](c2ccc(Cl)cc2)N(c2cc(Cl)cn(C)c2=O)C3=O)c(OC)n1	–	human patients, plasma	oral, 100 mg, high-dose arm, cycle 1 day 1	–	median Tmax	3.5 h
O=C(Cn1cnc([N+](=O)[O-])n1)Nc1ccc(N2CCOCC2)c(Cl)c1	–	aqueous buffer	pH 7.4	–	thermodynamic solubility	4.29 µM (≈ 1.57 µg/mL)

Structure (SMILES)	test	test system	conditions	scale	measurement	result
COc1cc2[nH]c(C)c(-c3cc(C(F)(F)F)cc(C(F)(F)F)c3)c(=O)c2cc1Cl	–	–	pH 7.4	–	kinetic solubility	< 2 µM
CS(=O)(=O)N(CC(=O)Nc1ccccc1C(=O)N1CCOCC1)c1ccc(Cl)cc1	–	aqueous buffer	pH 7.4	–	thermodynamic solubility	< 7.14 µM
Cn1cc(Nc2nccc(-c3ccc4c(c3)CN(C3COC3)CC[C@H]4NC(=O)c3cn(C(C)(C)C)nn3)n2)cn1	–	human, whole blood	50 mg twice daily, day 14	relative to: pre-dose baseline	CD4+ T cell count change	4.38%
Cc1cc(-c2nccc3c2ccn3CC(=O)Nc2ccc(-c3cnccn3)cn2)ccn1	–	human	SAD part, single 20 mg dose	–	subjects with any IMP-related TEAE	16.7%
CC(C)(C(=O)N1CCOc2c(C#N)cncc2C1)C(F)F	item: abnormal urine odour	human, both sexes	oral, 15 mg twice daily, 14 days, multiple ascending dose	–	subjects with TEAE	0%
C[C@H]1C[C@@H](N2C(=N)N[C@](C)(c3cccc(NC(=O)c4cccc(C#N)c4)c3Cl)CC2=O)CCO1	–	–	absorbance maximum 289 nm	–	molar extinction coefficient	3275 ± 24.6 L/mol/cm
CCOc1c([C@H](C)n2nc(C)c3c(N)ncnc32)cc(Cl)c(F)c1[C@@H]1CNC(=O)C1	ECG	previously treated B-cell malignancy patients	oral, 5 mg once daily, baseline below thresholds	–	observations with HR above 100 bpm	0%
C[C@@H](NC(=O)N1C(=O)[C@H](Cc2ccnc(N)c2)[C@H]1C(=O)O)C1CCCCC1	UPLC-MS/MS	healthy adult Chinese volunteers, plasma	continuous intravenous infusion, 0.3 mg/kg/h, day 6 of 5-day infusion, mean	–	Vd	0.546 L/kg
OC[C@H]1O[C@@H](c2ccc(F)c(Cc3cc4ccccc4s3)c2)[C@H](O)[C@@H](O)[C@@H]1O	–	Japanese patients, type 1 diabetes	oral, 25 mg/day, onset day 5	relative to: patients	hypoglycaemia-related adverse event	2%
CCc1c(-c2ccccc2)c(-c2ccccc2)nn1-c1ccccc1-c1cccc(OCC(=O)O)c1	–	male Sprague-Dawley rat, testis	oral, 10 mg/kg, 4 h	–	concentration	357 ng/g
Oc1ccc(/C=C/c2cc(O)cc(O)c2)cc1	–	rat, azoxymethane-injected, blood at sacrifice	100 mg/kg	–	lactate dehydrogenase	410 IU/L and 469 IU/L and 562 IU/L
CN1C(=O)[C@@H](NC(=O)c2nnc(Cc3ccccc3)[nH]2)COc2cccnc21	phase I single ascending dose	human, male and female	oral, 400 mg, fasted	–	medical device site reaction incidence	0%
CN(C(=O)n1cnc(-c2ccc[n+]([O-])c2)c1)[C@H]1CC[C@H](O)CC1	–	Wistar rat, medulla oblongata	oral, 10 mg/kg/day of BIA 10-2474, 4 h, repeated 5 days	–	concentration	14.9 ± 1.5 ng/g
O=C(Nc1nc2cccc(-c3ccc(CN4CCS(=O)(=O)CC4)cc3)n2n1)C1CC1	item: vomiting	rheumatoid arthritis patients	oral, 75 mg once daily, 4 weeks, any relatedness	–	treatment-emergent adverse events	0%
CNCCOC12CC3(C)CC(C)(CC(Cn4ncc(-c5ccc(N6CCc7cccc(C(=O)Nc8nc9ccccc9s8)c7C6)nc5C(=O)O)c4C)(C3)C1)C2	–	beagle dog, male, anaesthetised	intravenous bolus, 0.03 mg/kg, 150 min	relative to: baseline	dP/dt at 50 change	-20%
CN(CCCN1CCN(C(=O)CN2CCN(CC(=O)[O-])CCN(CC(=O)[O-])CCN(CC(=O)[O-])CC2)CC1)c1ccc2nccc(C(=O)NCC(=O)N3CC(F)(F)C[C@H]3C#N)c2c1.[68Ga+3]	–	mice, HT-1080.hFAP and HT-1080 wild-type xenografts, stomach	iv, 500 pmol, 4 h post injection	–	uptake	0.1 %IA/g
Cc1cccc(CNc2nc(-c3ccccn3)nc3ccccc23)n1	–	Japanese Pharmacopoeia disintegration test solution 2	pH 6.8	–	kinetic solubility	81 µg/mL
O=C1NCCc2nc(OCc3cccc(F)c3)ccc21	item: Vasodilatation	Sprague-Dawley rat male	oral, 100 mg/kg, 0 min	relative to: baseline, direction not given	Irwin test score	0
O=C(CSc1nnc(-c2ccccc2O)n1-c1ccccc1)Nc1cccc(C(=O)O)c1	–	aqueous buffer	pH 7.4	–	thermodynamic solubility	90.3 µM (≈ 40.3 µg/mL)
O=C(Nc1ccc(OC(F)(F)Cl)cc1)c1cnc(N2CC[C@@H](O)C2)c(-c2ccn[nH]2)c1	per laboratory record, item: bilirubin increase	human patients	oral, dose not given, dose-finding study	–	grade ≥2 event rate	1%

Structure (SMILES)	test	test system	conditions	scale	measurement	result
CCCCC1=NC2(CCCC2)C(=O)N1Cc1ccc(-c2ccccc2S(=O)(=O)Nc2noc(C)c2C)c(COCC)c1	–	healthy adult volunteers, plasma	oral, 200 mg, single dose, fasted, crushed tablet	–	AUC(0-inf)	45000 ng·h/mL
Cc1nc2cccc(OCC(C)(C)C(=O)NC(C)C)c2c(N)c1C(=O)O	–	Sprague-Dawley rat, female, plasma	oral, 30 mg/kg, day 7 over day 1, 7-day repeated dosing	relative to: day 7 over day 1	AUClast ratio	1.12 ± 0.26
NS(=O)(=O)c1cc(C(=O)O)c(NCc2ccco2)cc1Cl	item: dizziness	healthy men	oral, 8 days, treatment-emergent, crossover trial	–	subjects with adverse event	0%
c1ccc(-c2nc(NCCn3cnc4ccccc43)c3ccccc3n2)nc1	–	Japanese Pharmacopoeia disintegration test solution 2	pH 6.8	–	kinetic solubility	89 µg/mL
CNC(=O)c1cccc(-c2ccc([C@@H](O)[C@H]3O[C@H](CO)[C@@H](O)[C@H](O)[C@@H]3O)c(C)c2)c1	–	Sprague-Dawley rat, male, plasma	oral, 10 mg/kg	–	AUC(all)	80.9 ng·h/mL and 83.6 ng·h/mL
CC(C)n1c(Nc2cccnc2)nc2cnc(Nc3ccc(N4CCN(C)CC4)cc3)nc21	item: gamma-glutamyltransferase increased	healthy human, male	oral, dose not given, CTCAE grade 1-3	–	subjects with TEAE	2.4%
C[C@@H](Nc1cc(F)cc(F)c1)c1cc(C(=O)N(C)C)cc2c(=O)cc(N3CCOCC3)oc12	item: Anemia	advanced solid tumour patients	oral, dose not given, dose finding	–	related serious adverse events	1.6%
FC(F)(F)c1ccc(CNc2ccc(Cc3c[nH]c4ncc(Cl)cc34)cn2)cn1	item: memory impairment	human, advanced solid tumours, non-TGCT cohort	oral, 1000 mg/day, any grade	–	treatment-related adverse events	0%
Cc1ccc([C@@H]2O[C@H](CO)[C@@H](O)[C@H](O)[C@H]2O)cc1Cc1ccc(-c2ccc(F)cc2)s1	–	Japanese type 2 diabetes patients	200 mg, day 2, 24 h urine collection	relative to: baseline	urinary potassium excretion change	-3.92 mEq
Oc1ccc(/C=C/c2cc(O)cc(O)c2)cc1	–	male Wistar rats, plasma	oral, 10 mg/kg	–	MRT	9.72 ± 2.2 h
COc1cc(Nc2ncc3c(n2)-c2ccc(Cl)cc2C(c2c(F)cccc2OC)=NC3)ccc1C(=O)O	item: Constipation, all grades	cancer patients, phase 1/2	oral, dose not given, added: pembrolizumab	–	patients with adverse event	17%
Cl.[2H]C([2H])([2H])CC(=O)c1cnc(NC(=O)C2CC2)cc1Nc1cccc(-c2ncn(C([2H])([2H])[2H])n2)c1OC	geometric mean	human	oral, 25 mg single dose, fasted, liquid	–	Vz/F	134 L
C[C@@H](N)C1CCN(S(=O)(=O)c2cccc3cnccc23)CC1	–	healthy volunteers	150 mg, fed	–	incidence of limb abscess TEAE	10%
CCN1CCN(Cc2ccc(NC(=O)c3ccc(C)c(NC(=O)c4cncc(-c5cccs5)c4)c3)cc2C(F)(F)F)CC1	–	C57BL/6 mice, epithelial lining fluid	intraperitoneal, 15 mg/kg	–	extrapolated AUC share	5.3%
CCC[C@H]1CC[C@H](c2ccc(C#N)cc2)CC1	–	Sprague-Dawley rat, female, fetus	5000 ng/mL in perfusate, 50 (unit not given), high dose, mixture of 21 LCMs	–	median fetal accumulation	4.87 ng/g
[18F]c1ccc(-c2ccc3c(c2)[nH]c2ccncc23)cn1	ex vivo biodistribution	APP/PS1 mouse, Alzheimer model, urine	intravenous, 30 min	–	uptake	7.97 ± 8.09 SUV
N#Cc1ccc2c(c1)[C@H]1CCCN(C(=O)c3ccc4[nH]cnc4c3)[C@H]1C2	–	human	20 mg, end of trial	–	mean ACTH level	5.8 pmol/L
CC[C@H]1CC[C@H](c2ccc(-c3ccc(F)c(F)c3)cc2)CC1	–	rat, placenta	1000 ng/mL in perfusate, middle dose, mixture of 21 LCMs	–	median placental accumulation	8.07 ng/g

For quick reference, copied from above:
Structure (SMILES)	test	test system	conditions	scale	measurement	result
COc1cc(Nc2ncc3c(n2)-c2ccc(Cl)cc2C(c2c(F)cccc2OC)=NC3)ccc1C(=O)O	item: Constipation, all grades	cancer patients, phase 1/2	oral, dose not given, added: pembrolizumab	–	patients with adverse event	17%
CNC(=O)c1ccc(-c2cnc3ncc(Cc4ccc5ncccc5c4)n3n2)cc1F	–	cancer patients	oral, dose not given, all grades dose escalation	–	back pain incidence	3%
C[C@@H](NC(=O)N1C(=O)[C@H](Cc2ccnc(N)c2)[C@H]1C(=O)O)C1CCCCC1	UPLC-MS/MS	healthy adult Chinese volunteers, plasma	continuous intravenous infusion, 0.3 mg/kg/h, day 6 of 5-day infusion, mean	–	Vd	0.546 L/kg
Cc1cccc(CNc2nc(-c3ccccn3)nc3ccccc23)n1	–	Japanese Pharmacopoeia disintegration test solution 2	pH 6.8	–	kinetic solubility	81 µg/mL
COc1cc(C)c(/C=C/C(C)=C/C=C/C(C)=C/C(=O)O)c(C)c1C	shake-flask	Cremophor ELP	37 °C, water up to 0.5% w/w	–	thermodynamic solubility	1.58 ± 0.08 mg/g
